Measurements of several laboratories.
Protocols differ between the studies behind these lines. ± gives the spread as reported.

Compound | tested on | assay | system | setting | quantity | result
CCOC(=O)c1ccc(N)cc1 | batrachotoxin-modified sodium channel, rat | ion current, inhibitor, whole-cell voltage clamp | GH3 | resting channels, held at -170 mV | IC50 | > 3000 µM
COC[C@H](NC(C)=O)C(=O)NCc1ccc(OCc2cccc(F)c2)cc1 | voltage-gated sodium channel | peak sodium current, inhibitor, whole-cell patch clamp | CAD | 0 mV from -80 mV holding | IC50 | 42.9 ± 1.4 µM
O=C(NC(=O)c1ccccc1Cl)Nc1ccc(OC(F)(F)F)cc1 | mAb-19F2 (BALB/c mouse monoclonal antibody) | antibody binding, indirect competitive ELISA | – | – | IC50 | > 1 µg/mL
CC[C@H](C)[C@@H]1C(=O)O[C@H]1C(=O)N[C@H](C(=O)N[C@H](C(=O)OCc1ccccc1)C(C)C)C(C)(C)C | human proteasome β2 subunit | – | – | – | IC50 | 5.05 ± 0.688 µM
Cc1cc(Nc2nc(N[C@@H](C)c3ncc(F)cn3)ncc2Cl)n[nH]1 | Stat5a, human | reporter gene, inhibitor, luciferase reporter | PC-3 | 1 h pretreatment, with: human prolactin 10 nM, 16 h | IC50 | 0.15 µM
CN[C@@](C)(C[18F])C(=O)O | A549 tumour model | – | host not given, bone | 1 h, tumour-bearing | tracer uptake | 1.6 %ID/g
CC[C@H](C)[C@@H]1C(=O)O[C@H]1C(=O)N[C@H](C(=O)N[C@@H](COCc1ccccc1)C(=O)OCc1ccccc1)C(C)C | human proteasome β2 subunit | – | – | – | IC50 | 1.56 ± 0.062 µM
NC[C@@H]1O[C@H](O[C@H]2[C@@H](O)[C@H](O[C@@H]3[C@@H](O)[C@H](N)C[C@H](N)[C@H]3O[C@H]3O[C@H](CO)C[C@H](O)[C@H]3N)O[C@@H]2CO)[C@H](N)[C@@H](O)[C@@H]1O | Mycobacterium smegmatis ribosome wild type | translation, cell-free luciferase synthesis | – | – | IC50 | 0.05 ± 0.01 µg/mL
O=C(Nc1cccnn1)N1CCN([C@@H]2CCOc3cc(C(F)(F)F)ccc32)CC1 | GABA-gated Cl- channel | binding | – | – | IC50 | 23 µM
Oc1cccc2ccccc12 | anti-1-naphthol monoclonal antibody | antibody binding, competitive indirect ELISA | – | pH 6.4 | IC50 | 0.0125 µg/mL
O=C(NC(=O)c1c(F)cccc1F)Nc1cc(Cl)c(Oc2ncc(C(F)(F)F)cc2Cl)c(Cl)c1 | mAb-19F2 (BALB/c mouse monoclonal antibody) | antibody binding, indirect competitive ELISA | – | – | IC50 | > 1 µg/mL
C/C=C1\NC(=O)[C@@H](NC(=O)[C@@H](NC(=O)[C@H](C)NC(=O)C/C(C)=C/Cl)C(C)C)[C@@H](C)OC(=O)[C@H](C(C)C)NC(=O)[C@H](Cc2ccc(O)cc2)N(C)C(=O)[C@H](Cc2ccccc2)N2C(=O)[C@H](CC[C@H]2O)NC1=O | bovine trypsin | enzyme activity, inhibitor | – | 30 min, pH 7.4, 22 °C, with: Z-Leu-Arg-Arg-AMC | IC50 | > 20 µM
CC(C)[C@H](NC(=O)[C@@H]1OC(=O)[C@H]1C1CC1)C(=O)N[C@H](C(=O)OCc1ccccc1)C(C)C | human proteasome β2 subunit | – | – | – | IC50 | 3.19 ± 0.164 µM
N=C(N)NCCC[C@H](N)C(=O)O | neuronal nicotinic acetylcholine receptor rat | ACh-evoked current, antagonist, whole-cell voltage clamp | rat intracardiac neurons | holding -90 mV, with: ACh 100 µM | IC50 | 3300 µM
CN1C(=O)N(c2ccccc2Br)Cc2cnc(Nc3ccc4c(c3)OCC(CO)O4)nc21 (stereo not drawn) | TGF-β/SMAD signalling | reporter gene, antagonist | SBE-bla HEK293T | primary qHTS screen, with: TGF-β1 | IC50 | 0.57 µM
CCN[C@@H]1C[C@H](N)[C@@H](O[C@H]2OC(CN)=CC[C@H]2N)[C@H](O)[C@H]1O[C@H]1OC[C@](C)(O)[C@H](NC)[C@H]1O | Mycobacterium smegmatis 70S ribosome | phenylalanine incorporation, inhibitor, cell-free translation | hybrid ribosomes 0.25 µM | 60 min, 37 °C, with: (UUU)12 mRNA | IC50 | 1.1 µM
Oc1ccc(/C=C/c2cc(O)cc(O)c2)cc1 | human HDAC class I/II | enzyme activity, inhibitor, HDAC-Glo I/II | HCT-116 | – | IC50 | 2.66 µM
N#CCCC(Br)(C#N)CBr (stereo not drawn) | cysteine peptide Ac-RFAACAA-COOH | peptide depletion, DPRA RapidFire-MS/MS | – | 24 h, pH 7.5, room temperature, with: 5.0 µM cysteine peptide | IC50 | 1.01 µM

A few entries again:
Compound | tested on | assay | system | setting | quantity | result
CC(C)[C@H](NC(=O)[C@@H]1OC(=O)[C@H]1C1CC1)C(=O)N[C@H](C(=O)OCc1ccccc1)C(C)C | human proteasome β2 subunit | – | – | – | IC50 | 3.19 ± 0.164 µM
